Experimental data of several laboratories.
Each line is one published result; not all experiments were run side by side. Several values in a cell are separate wells, animals, samples, runs or records.
Target: Ephrin type-B receptor 1 (EPHB1, Homo sapiens, UniProt P54762)

| Structure (SMILES) | test | conditions | how to read | endpoint | value |
| --- | --- | --- | --- | --- | --- |
| COc1cc(Nc2nc(C)cc(-c3cnn4nc(OC)ccc34)n2)cc(C(F)(F)F)c1 | inhibitor | 1 µM | relative to: control | remaining activity | 85% |
| COCC12C(=O)NC3C4(C(OC)CC1O)C1CC5(O)C(OC)C(O)C(OC(C)=O)(C1C5OC(=O)c1ccccc1)C3(O)C(OC)C24 (centres unmarked) | kinase activity, inhibitor, ProQinase kinase profiling | 25 µM | relative to: control | remaining activity | 108% |
| Cc1ccc(-c2c(/C=C(\C#N)C(=O)NC(C)C)n(CCCO)c3ncnc(N)c23)cc1 | cell-free assay, competition with immobilised ligand | 1 µM |  | remaining binding | 66% |
| NC(=O)[C@@H](O)C[C@H]1CCc2sc3ncnc(O[C@H]4CC[C@H](N5CCOCC5)CC4)c3c21 | enzyme activity, inhibitor | 10 µM |  | inhibition | 24% |
| CC(C)=CC1OC(C)(C)C2C=C3C(=O)C(Cl)=CC(O)C3C3C(O)C4OC4C(=O)C132 (centres unmarked) | cell-free assay, competition with immobilised ligand | 10 µM |  | remaining binding | 81% |
| C=CC(=O)N1Cc2nc(-c3cc(-c4cc(Cl)cnc4Cl)c(F)cc3F)n(-c3ccncn3)c2C1 | cell-free assay | 1 µM |  | inhibition | 2.1% |
| CNC(=O)C1CCN(c2cc(C)c(F)cc2NC(=O)c2ccc(-c3cc(O)ccc3C)c(C)c2)CC1 | binding, competition with immobilised ligand | 1 µM |  | remaining binding | 4.3% |
| COc1c(Cl)cccc1Nc1c(-c2ccncc2C#C[C@@]2(C)CCCN2C(=O)/C=C/CN(C)C)[nH]c2c1C(=O)NCC2 | cell-free assay, competition with immobilised ligand | 3 µM |  | remaining binding | 90% |
| CCN1CCN(Cc2ccc(NC(=O)c3ccc(C)c(NC(=O)c4cncc(-c5cccs5)c4)c3)cc2C(F)(F)F)CC1 | binding, competition with immobilised ligand | 1 µM |  | remaining binding | 3.6% |
| CNC1C[S+]2CC[S+]3CC[S+](C1)[Ru-4]321([N]=C=S)[n]2c3ccc(OC)cc3c3c4c(c5cc(F)c[n+]1c5c32)C(=O)NC4=O (centres unmarked) | KinomeScan | 0.1 µM | relative to: untreated | remaining binding | 100% |
| C=CC(=O)N1CCc2ccc(-n3c(=O)ccc4cnc5ccc(-c6cnn(C)c6)cc5c43)cc21 | KINOMEscan | 1 µM | relative to: DMSO control | remaining binding | 100% |
| C=CC(=O)Nc1cccc(-c2cnc3[nH]cc(C(=O)NC(C)(C)C)c3n2)c1 | kinase activity | 0.1 µM |  | inhibition | -5% and 0% |
| Cc1cccc(O[C@H]2CCC[C@@H](C(C)CNCc3ccncc3)C2)c1 (relative stereo) | cell-free assay | 1 µM |  | inhibition | -2% |
| CCN1CCN(Cc2ccc(C(=O)Nc3ccc(C)c(NCc4cnc5[nH]ccc5c4OC)c3)cc2C(F)(F)F)CC1 | binding, competition with immobilised ligand | 1 µM |  | remaining binding | 10% |

For quick reference, copied from above:
| Structure (SMILES) | test | conditions | how to read | endpoint | value |
| --- | --- | --- | --- | --- | --- |
| C=CC(=O)N1Cc2nc(-c3cc(-c4cc(Cl)cnc4Cl)c(F)cc3F)n(-c3ccncn3)c2C1 | cell-free assay | 1 µM |  | inhibition | 2.1% |
| CC(C)=CC1OC(C)(C)C2C=C3C(=O)C(Cl)=CC(O)C3C3C(O)C4OC4C(=O)C132 (centres unmarked) | cell-free assay, competition with immobilised ligand | 10 µM |  | remaining binding | 81% |
